Results from different studies.
Parts stem from different laboratories: compare values within a part only.

Block 1
Target: RNA binding protein fox-1 homolog 2, RRM domain, GST-SBP tag (RBFOX2, Homo sapiens, UniProt O43251-10, residues 100-194)
Technique: RNA Bind-n-Seq
Molecule type: RNA
Matrix: in vitro
Tested at: 365 nM
Notes: natural RNA segment, single round, ends assumed
Relative to: no-protein control
Direction: higher = stronger binding
Target sequence (chain): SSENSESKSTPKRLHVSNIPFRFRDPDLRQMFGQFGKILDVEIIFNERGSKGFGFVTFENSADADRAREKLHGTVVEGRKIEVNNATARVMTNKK
Strand	RBNS enrichment (R)
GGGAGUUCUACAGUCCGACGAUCCUAUGGCUCCCUUCCCUUCUUACUGGUUCAGGGUAGCUUAUGCCUCAGGGUCAGAGCCCCUGAUCUGCUGAUGUUUGGUUGGGUGUCCAUGAGGGCCCCUCCCACCCAGUUGGAAUUCUCGGGUGCCAA	0.298
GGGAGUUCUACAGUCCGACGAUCAGGAGGAGAUGAGAGACUCUGGCAUGAUCUUUUUUUUGUCCCACUUGGUGGGGCCAGGGUCCUCUCCCCUGCCCAGGAAUGUGCAAGGCCAGGGCAUGGGGGCAAAUAUGUGGAAUUCUCGGGUGCCAA	4.94
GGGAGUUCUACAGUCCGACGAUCAUUUGGCCAGAAAAUGCAGCCAUCCUUGUGUGAUUAGGAGGGUUUCAGGGGCCACUGGACUAUUUGCAAGGUGACAGGGACUGGAGCCAUGGCUCAGAGGUGAUUCGGGCUGGAAUUCUCGGGUGCCAA	1.12
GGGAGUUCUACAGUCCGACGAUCUCCUCCACCGUGGCGGCCAGCUGCAUGGAGCCCGGCCCUUGGGCACUGGUGAGCGUUGGAACCUUGUCGUCUGGCUCCGAGCCUCUGCUGUGCGCAACAGCCUCUGUCCCUGGAAUUCUCGGGUGCCAA	1.53
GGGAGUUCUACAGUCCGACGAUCUGUCACGUUGCAUUCAUGUUCACCUCCUGAUUUAAGUAUCUCGGGUGUGCCCAGCCACUAAAGCACUCUGGACUAAUCGCUAAAGAGAAGCAACGUGGGGGGUGGGGUUGUGGAAUUCUCGGGUGCCAA	0.322
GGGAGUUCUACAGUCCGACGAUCCAUUAUAUAGCAGAAAUAACUACUGUAUAAUUCUUGGGGUUAACCAUCUUUAGUUAAUGGAAUUUUAAUUUAAAUGAAGCUUUGCUAAUUUUAAGUGGUAAGCAUUUUGCUGGAAUUCUCGGGUGCCAA	0.355
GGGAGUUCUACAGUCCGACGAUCAAUGUAAAAUGAUUCUGUAUUAAUGUAAAUAAGAUUAUCUAUUGCAAAAAGAUAUUUCAAACCUAAAUUGUGGUCAUUUCUUCUUUGAAAGAAUUCAGACAGCCUCUGCAUGGAAUUCUCGGGUGCCAA	2.5
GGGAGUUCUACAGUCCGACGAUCGUGGGUGGGAUCUGGGGGAGGUAGAUUUUCCUCAUCUCUCUUCCUGCCUCCCUCCCAUCUCCUGAUCCACAUAGAUGGAAUAGAAAGCAGCCUUUGUUGCUGUAGAUGUGUGGAAUUCUCGGGUGCCAA	0.493
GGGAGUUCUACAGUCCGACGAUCUCCUCUCUGUUGCGUGUGUCGAGAGACACUGACAGUUUCGUGUAACUCCCAGGAAUACUGUACCUGUGUUUGGAGGAGCUUUCUCAGAGAAAUAGCAAGCAUGUCCUGUUUGGAAUUCUCGGGUGCCAA	1.62
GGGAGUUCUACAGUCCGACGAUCUGAGGACUCAUAUAUUUAAGCCUUUUGUGUAAUAAGAAAGUAUAAAGUCACUUCCAGUGUUGGCUGUGUGACAGAAUCUUGUAUUUGGGCCAAGGUGUUUCCAUUUCUCAUGGAAUUCUCGGGUGCCAA	1.27
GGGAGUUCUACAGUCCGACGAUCACUAGCAGCCUGAACAAUGUCACUCAUAAUGGCAACUCAGACUGUUUCCCUUCCCUUUGACUGUGUGGCCUUUCCCACACAGUUACUAACAGAUAUUUCUGAGUGGUGGAUGGAAUUCUCGGGUGCCAA	0.219
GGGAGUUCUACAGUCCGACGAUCAUUAUAGGAGUUGAUUUUUACUUUGCAAAGUGGCUCGGUCCUCAUGAGCAUCUGCAUGUUGACUCUUCAGUUAAGAAAAUUGUUGUUCAUUUAGGGAGGUGGAUAUUCUGUGGAAUUCUCGGGUGCCAA	3.02

Block 2
Target: PABPC1L2, full length, GST fusion (mouse, UniProt A0ABA7IW68)
Technique: RNAcompete
Molecule type: RNA
Matrix: in vitro
Tested at: 20 nM
Notes: 7-mer, probes averaged, single round
Relative to: mean of 7-mers
Direction: higher = stronger binding
Target sequence (chain): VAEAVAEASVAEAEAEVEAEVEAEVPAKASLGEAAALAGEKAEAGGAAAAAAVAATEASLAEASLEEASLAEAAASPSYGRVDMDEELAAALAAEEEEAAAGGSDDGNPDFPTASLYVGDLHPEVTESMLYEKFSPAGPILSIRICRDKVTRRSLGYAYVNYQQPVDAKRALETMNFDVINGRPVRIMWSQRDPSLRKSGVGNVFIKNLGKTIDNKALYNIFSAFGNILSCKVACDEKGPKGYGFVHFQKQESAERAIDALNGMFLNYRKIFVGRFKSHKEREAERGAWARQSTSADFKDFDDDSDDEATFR
Strand	7-mer Z-score
AAAGUAU	1.17
GUGCCCC	-0.191
GUCUACA	-0.229
CCUCAAA	0.229
UUGCUAU	-0.24
AAUAUAG	0.267
CGUCCGU	-0.267
AUUACAG	-0.0174
GGUUAUG	-0.0192
CUGACUG	-0.264
CCACGUG	-0.197
CCUGUGU	-0.345
UGCUUGA	-0.157
UAGGCCG	-0.0264
UCCCUUG	-0.374
CUGGCAU	-0.155

Block 3
Target: Ras GTPase-activating protein-binding protein 1, full length (G3BP1, Homo sapiens, UniProt Q13283)
Chain of UniProt Q13283 (whole entry, looked up): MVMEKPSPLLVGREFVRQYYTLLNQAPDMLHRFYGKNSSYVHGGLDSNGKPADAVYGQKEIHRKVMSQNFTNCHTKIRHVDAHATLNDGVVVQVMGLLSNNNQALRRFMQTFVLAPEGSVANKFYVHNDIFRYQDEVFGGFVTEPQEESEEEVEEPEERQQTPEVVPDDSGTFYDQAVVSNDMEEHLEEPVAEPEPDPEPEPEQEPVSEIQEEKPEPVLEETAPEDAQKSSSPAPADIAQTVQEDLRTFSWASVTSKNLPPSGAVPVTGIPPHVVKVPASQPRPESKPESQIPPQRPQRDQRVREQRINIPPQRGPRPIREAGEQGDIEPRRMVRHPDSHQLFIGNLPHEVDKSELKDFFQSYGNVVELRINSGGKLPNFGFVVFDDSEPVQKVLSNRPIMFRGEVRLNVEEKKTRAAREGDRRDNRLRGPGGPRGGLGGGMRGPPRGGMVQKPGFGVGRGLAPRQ
Technique: RNA Bind-n-Seq
Molecule type: RNA
Matrix: in vitro
Tested at: 200 nM
Notes: whole 134-nt RNA, ends assumed
Together with: 150 mM KCl
Relative to: input library
Direction: higher = stronger binding
Strand	log2 enrichment
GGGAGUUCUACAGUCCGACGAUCUCCUCAAGUCCUGUGCUACACAUCGUAUGUACCGAAUCGGGUGGGUGGGUGGAAAGUAUUAUGUUACGCCGUUCGGAUCUGCACUUCCAGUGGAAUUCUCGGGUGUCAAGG	1.64
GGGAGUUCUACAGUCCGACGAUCGUCCUGUGCUACACAUCGUAUGUACCGAAUCGGUUUUUUGGUUUUUUGGGUUUUUUGGGAAAGUAUUAUGUUACGCCGUUCGGAUCUGCAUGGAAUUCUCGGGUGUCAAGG	-1.11
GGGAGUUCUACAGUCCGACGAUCAAGUCCUGUGCUACACAUCGUAUGUACCGAAUCGGCCCCGGGGCCCCGGGCCCCGGAAAGUAUUAUGUUACGCCGUUCGGAUCUGCACUUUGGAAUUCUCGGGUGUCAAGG	-1.08
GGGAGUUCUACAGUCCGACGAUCAAGUCCUGUGCUACACAUCGUAUGUACCGAAUCGGAAAAAAAGGUUUUUUUGGUGGAAAGUAUUAUGUUACGCCGUUCGGAUCUGCACUUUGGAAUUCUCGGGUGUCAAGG	-1.64
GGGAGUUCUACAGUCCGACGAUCUGCGGGACAAAGAAGUGGCCAAUCGAUACUUUACCACUGUCUGUGUGAGAUUACUGCUUGAGAGCAAAGAAAAGAAGAUCAGGGAAUUCAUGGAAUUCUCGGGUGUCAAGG	0.927
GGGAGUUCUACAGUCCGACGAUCUGCCAGGCCCACCCCCAGGUGUUCCCGCGCCUGGGGGCCCACCCCUGUCCACCGGACCUAUAGUGGACCUGCUCCAGUACAGCCAGAAGGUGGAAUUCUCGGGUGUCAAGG	0.52
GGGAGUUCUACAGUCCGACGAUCAAAAUUUCCAGUACCUUUGUCACAAUCCUAACACAUUAUCGGGAGCAGUGUCUUCCAUAAUGUAUAAAGAACAAGGUAGUUUUUACCUACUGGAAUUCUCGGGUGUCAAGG	-1.11
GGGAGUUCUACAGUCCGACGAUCUGGGAGGUGGAUUUUGUUUAUUUUUUUAGCUCAUUUCCAGGGGUGGGAAUUUUUUUUUAAUAUGUGUCAUGAAUAAAGUUGUUUUUGAACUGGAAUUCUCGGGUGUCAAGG	0.325
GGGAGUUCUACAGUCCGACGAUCCAAGUCCUGUGCUACACAUCGUAUGUACCGAAUCGGGGCCCGGGCCCGGCCCGGGGAAAGUAUUAUGUUACGCCGUUCGGAUCUGCACUUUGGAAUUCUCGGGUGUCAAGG	-0.975
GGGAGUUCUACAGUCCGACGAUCUAUGCCACGCCCUUUGAGGACUCGAAGAUCAUGGUCUCUGACUUUGGACUCUCCAAAAUCCAGGCUGGGAACAUGCUAGGCACCGCCUGUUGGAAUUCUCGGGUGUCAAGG	0.255

Block 4
Substance: PhoQ, residues 284 288 289 292 302 303 NLCILV
Technique: Sort-seq
Refers to: YFP reporter
Matrix: E. coli
Notes: PhoQ-PhoP variant library
Together with: 10 µM Mg2+
Relative to: high Mg2+ state
Direction: higher = stronger signaling
target	fold induction
PhoP, residues 12 14 15 18 19 SHWTV (Escherichia coli, UniProt P23836)	12.8
PhoP, residues 12 14 15 18 19 QYCSL (Escherichia coli, UniProt P23836)	14.8
PhoP, residues 12 14 15 18 19 STHWV (Escherichia coli, UniProt P23836)	18.9

Block 5
Target: Histone acetyltransferase KAT6A, winged helix 2, GST fusion (KAT6A, Homo sapiens, UniProt Q92794, residues 85-181)
Technique: protein binding microarray
Molecule type: double-stranded DNA, one strand shown
Matrix: in vitro
Tested at: not given
Notes: 8-mer, flanks averaged, mean of 2 arrays, mostly near background
Relative to: not given
Direction: higher = stronger binding
Construct (chain): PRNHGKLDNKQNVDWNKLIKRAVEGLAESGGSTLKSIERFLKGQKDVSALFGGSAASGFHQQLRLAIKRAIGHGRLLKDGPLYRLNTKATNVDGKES
Strand	E-score
AGCTGGCA	0.0642
AAAATGAT	0.139
GCTTCGAC	-0.0588
CATACGCA	0.0746
GGCAGGCA	0.0976
ACTAATCT	-0.0885
TAACTTAA	0.155
GGCCTTAA	-0.0755
CTTCGCTC	0.201
CATCCATA	-0.0449
ACATCGAG	-0.0542
AACTTTGC	0.156
AGCGCAGG	0.0454
CACATCAA	0.0247
AGGATGCG	-0.0591
AGGTGGCG	0.0487
CTGCTCGC	0.0913
AACCTATA	-0.0941
GAGAGATC	0.0217
CTATAGGA	-0.205
AAGATGAA	-0.0448
GCATTGAC	-0.0374
CATTTCGG	-0.113
ACTCGGCT	-0.0428
ATGTGTAG	-0.295

Some of these lines once more (block 5):
Strand	E-score
ATGTGTAG	-0.295
AGGTGGCG	0.0487
AGCGCAGG	0.0454
CACATCAA	0.0247
ACTAATCT	-0.0885
CTTCGCTC	0.201
CATTTCGG	-0.113
ACATCGAG	-0.0542
CATCCATA	-0.0449
GCATTGAC	-0.0374
